Assay results collected from several papers.
Parts stem from different laboratories: compare values within a part only. Changes are numbered by the printed parent chain.

Study 1 — technique: DHFR PCA, dose-response; matrix: yeast; setting: Hill fit, mean, not affinity; with: (+)-ABA, dose series; direction: lower = more sensitive
Target: ABI1, truncated, D143A, DHFR fusion (Arabidopsis thaliana, UniProt P49597)
Parent: PYL1, truncated, DHFR fusion (Arabidopsis thaliana, UniProt Q8VZS8); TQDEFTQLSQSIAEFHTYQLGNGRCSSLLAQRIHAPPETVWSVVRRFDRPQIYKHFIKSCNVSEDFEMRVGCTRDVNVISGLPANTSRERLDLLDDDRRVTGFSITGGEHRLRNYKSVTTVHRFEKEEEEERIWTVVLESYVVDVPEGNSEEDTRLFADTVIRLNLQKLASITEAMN
| Variant | ABA EC50 [µM] |
| --- | --- |
| A170E | 50.1 |
| I12F | 77.4 |
| A30I | 1.89 |
| I52R | 3.71 |
| V142Q | 1.53 |
| E147K | 3.82 |
| E38I | 82 |
| R46Q | 4.04 |
| E125K | 1.91 |
| F56M | 7.18 |
| I33F | 480 |
| Q19R | 2.33 |
| G21Y | 6.87 |
| R49N | 3.68 |
| P37Y | 162 |

Study 2 — technique: RNA Bind-n-Seq; form: RNA; matrix: in vitro; concentration: 365 nM; baseline: no-protein control; direction: higher = stronger binding
Target: RNA binding protein fox-1 homolog 2, RRM domain, GST-SBP tag (RBFOX2, Homo sapiens, UniProt O43251-10, residues 100-194)
Setting: natural RNA segment, single round, ends assumed
Constant ends, left off below: GGGAGUUCUACAGUCCGACGAUC … UGGAAUUCUCGGGUGCCAA
Residues (chain): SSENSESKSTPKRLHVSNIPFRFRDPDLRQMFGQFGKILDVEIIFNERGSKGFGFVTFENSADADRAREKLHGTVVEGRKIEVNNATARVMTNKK
| Sequence | RBNS enrichment (R) |
| --- | --- |
| AACUUAAGAAGAAAGCUUCCCUCUUCUGACAUCCCUGCCGGCUCGGCUCGAUUCGGCUCGCCCUGUCCGUGACAGUACCUUCCUUCUGCUGCUUCGAGGCCCUGAAGCUG | 0.274 |
| CAUUGCAGCAGCCGCGCCCAGCCCAGGGAAGAAAGGAUGGGAAACCCCCGAGGUCUUCCUUGAACAUCAGGCUUCCAGGCCCCGUUAUCUUCGCCCCAGGAAGGGUGCAU | 0.391 |
| AGGAGCUCUAAUUAUGCUUUAAAAAUCUGUUGUGGAGAUUGCUUUAAAUGCUCCCUGCCUGGUGUGGGGAUGGGGUCCCCCUCUUUGUGAGGGCUGGAGCAUGGCACGGC | 1.29 |
| CUGCCGUCCAAUGCUGGGAUUGAAGGUGUGCACAGCCACACCAGCUUAAGGUUUUGUUAAAGAAGACGAUAGGUAUGGCUGGAUUAUAUAGUCUUCAGGUUCACAUGAAC | 0.394 |
| GCUGCCAAUAAUAUCUAAUAUUUUUCAUCAUGCACGAAUUAAUAAUCAUCAUACUCUAGAAUCUUGUCUGUCACUCACUACAUGAAUAAGCAAAUAUUGUCUUCAAAAGA | 0.485 |
| AGUGAGCCAAAUGCCCGUUCUUUCUCCCUUCCUUGAACUCCAGGUCCUGUGCUGUGUCUGUACUCAGCCAUGUGUGUUUUGUCUGCUGUCUGUCUUCUGAGGCUUAGCAU | 1.13 |
| CUUCCCAGGGCUGCGGUCCUGGUGUCUACUGCCGGCCGGCUGAGUCUGCGUGGGCUUUCUGUCUCUCAGCUCCCUUUCCCAGCCCACAGGGACAGAAGUACCAUCCACUU | 0.284 |
| ACUUUGACACUGUGAAGCUCUAAGGAUACAAUAGGAAUGAAGACAGAGGAAGAAAAACUAAAGAGUCGUUUGUUCAGAGACCUGACCUUAUAAAGUUGGGGGAGCAGCUG | 0.706 |
| UAUAUUUUGGGUACUGGAGCUUUUAAAAAUGUUUGGUUUCAGGUAUUUUUAUUCAUGUGAAGUGUAUAUGAUUCUCUUGAGAUAAGGUUUUAAGCUAAAAUGUUACUCCC | 0.398 |
| UUCUUGGUGAAACAAAAGUUUUAAAAGUAGUUUUAACAACUUUACACUGGAAUGAUUUAGCUUUGUUAUUGCAUGUCUUGUGUUAAGUGUUUUGUAUAUGAUAUUGCAGU | 1.15 |
| CCGCUGGUUGGUACACUGAUUUCCAGGAAAAGCCCCAGAAGCAGUAGAGGGAGAGCCAUGUACUUGGGAGUAGGCUGAAGUACCUAACAGUGUAGGGUAAAGAACAGAAU | 1.11 |
| AUAUAUGUGUAAUUCCAGCACUGGGAGGAGGACAAAGGGCAAUCAGGAGUUCAAGGCCAGCCUUAGCUAUAUAGUGAGUUUGAAGCCAGCCUGGGCUACAUGUAACCUUC | 0.226 |

Study 3 — technique: protein-binding microarray; form: double-stranded DNA, one strand shown; matrix: in vitro; concentration: 250 nM; setting: 60-bp whole probe; with: salmon DNA 0.4 mg/ml; baseline: random background probes; direction: higher = stronger binding; constant ends, left off below: GCCTAGCAC … GTCTTGATTCGCTTGACGCTGCTG
Target: Interferon regulatory factor 7, full length, phosphomimetic (IRF7, Homo sapiens, UniProt Q92985, residues 1-503, S101K/S471D/S472D/S475D/S476D/S477D/S483D/S484D/S487D)
Residues (chain): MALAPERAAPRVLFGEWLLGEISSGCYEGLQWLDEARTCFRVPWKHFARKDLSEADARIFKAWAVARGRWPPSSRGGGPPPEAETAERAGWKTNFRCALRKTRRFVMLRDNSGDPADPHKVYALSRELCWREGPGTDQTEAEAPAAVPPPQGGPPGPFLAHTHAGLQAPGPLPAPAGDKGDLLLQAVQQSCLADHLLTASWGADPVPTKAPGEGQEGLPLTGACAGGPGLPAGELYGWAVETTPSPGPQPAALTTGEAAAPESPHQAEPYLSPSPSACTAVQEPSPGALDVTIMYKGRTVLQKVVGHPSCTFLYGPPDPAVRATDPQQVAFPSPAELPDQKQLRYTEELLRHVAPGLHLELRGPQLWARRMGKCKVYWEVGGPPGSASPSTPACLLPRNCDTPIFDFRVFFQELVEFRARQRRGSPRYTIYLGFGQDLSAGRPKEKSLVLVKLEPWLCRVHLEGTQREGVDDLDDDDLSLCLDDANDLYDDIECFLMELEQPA
| Sequence | log fluorescence |
| --- | --- |
| GACGCTATCGGGTTTCGGGACGTGCTA | 1.48 z-score |
| GAAGATCTCAGTTTCGAGACGTGCTAG | 4.23 z-score |
| TTAGGACCGGACTATCGGTTAGTGCTA | 0.0954 z-score |
| GGCGGTTTCGGTTTCGGGACGTGCTAG | 14.1 z-score |
| TTAGGTTTCGGTATCGGTTCGTGCTAG | 10.8 z-score |
| GACGGTTACGGTCTCGGGACGTGCTAG | 0.0811 z-score |
| TTAGGTCTCCTACTGCCTTAGTGCTAG | -0.253 z-score |
| GGACAGTAATGGAGGTATAAGTGCTAG | -0.767 z-score |
| TTAGGTATCGGGTTTCGGTTGGTGCTA | 7.39 z-score |
| TTAGGACTGGGTTTCAGTTAGTGCTAG | 1.02 z-score |
| TCAATGATTGGTTGAACACTGTGCTAG | -0.391 z-score |
| GACGGACTGGGACTGGGGTCGTGCTAG | -0.217 z-score |
| GACGAACTAAGTTTCGAGACGTGCTAG | 4.93 z-score |
| GACGAATTCAGTTTCGAGACGTGCTAG | 5.04 z-score |
| TTAGGTTTCGGTACCGGTTAGTGCTAG | 6.08 z-score |
| GACGGTCTCGGTTACGGGACGTGCTAG | 1.36 z-score |
| GACGAACTGAGACTGGAGCCGTGCTAG | -0.36 z-score |
| GACGGTCTCCTTTTTCTGACGTGCTAG | 0.688 z-score |
| CCCCTCTTCTGGATCTCAGAGTGCTAG | 0.212 z-score |
| CCCTTTCTCTCTGTGACACAGTGCTAG | 2.34 z-score |
| TTAGAACTGGGGTATCGGTTAGTGCTA | 0.29 z-score |
| TACGATCTCAGTATCGAGACGTGCTAG | 0.284 z-score |

Study 4 — technique: universal PBM; form: double-stranded DNA, one strand shown; matrix: in vitro; concentration: 600 nM; direction: higher = stronger binding
Target: Sal-like protein 4, full length isoform A (SALL4, Homo sapiens, UniProt Q9UJQ4, residues 1-1053)
Sequence of UniProt Q9UJQ4 (whole entry, looked up): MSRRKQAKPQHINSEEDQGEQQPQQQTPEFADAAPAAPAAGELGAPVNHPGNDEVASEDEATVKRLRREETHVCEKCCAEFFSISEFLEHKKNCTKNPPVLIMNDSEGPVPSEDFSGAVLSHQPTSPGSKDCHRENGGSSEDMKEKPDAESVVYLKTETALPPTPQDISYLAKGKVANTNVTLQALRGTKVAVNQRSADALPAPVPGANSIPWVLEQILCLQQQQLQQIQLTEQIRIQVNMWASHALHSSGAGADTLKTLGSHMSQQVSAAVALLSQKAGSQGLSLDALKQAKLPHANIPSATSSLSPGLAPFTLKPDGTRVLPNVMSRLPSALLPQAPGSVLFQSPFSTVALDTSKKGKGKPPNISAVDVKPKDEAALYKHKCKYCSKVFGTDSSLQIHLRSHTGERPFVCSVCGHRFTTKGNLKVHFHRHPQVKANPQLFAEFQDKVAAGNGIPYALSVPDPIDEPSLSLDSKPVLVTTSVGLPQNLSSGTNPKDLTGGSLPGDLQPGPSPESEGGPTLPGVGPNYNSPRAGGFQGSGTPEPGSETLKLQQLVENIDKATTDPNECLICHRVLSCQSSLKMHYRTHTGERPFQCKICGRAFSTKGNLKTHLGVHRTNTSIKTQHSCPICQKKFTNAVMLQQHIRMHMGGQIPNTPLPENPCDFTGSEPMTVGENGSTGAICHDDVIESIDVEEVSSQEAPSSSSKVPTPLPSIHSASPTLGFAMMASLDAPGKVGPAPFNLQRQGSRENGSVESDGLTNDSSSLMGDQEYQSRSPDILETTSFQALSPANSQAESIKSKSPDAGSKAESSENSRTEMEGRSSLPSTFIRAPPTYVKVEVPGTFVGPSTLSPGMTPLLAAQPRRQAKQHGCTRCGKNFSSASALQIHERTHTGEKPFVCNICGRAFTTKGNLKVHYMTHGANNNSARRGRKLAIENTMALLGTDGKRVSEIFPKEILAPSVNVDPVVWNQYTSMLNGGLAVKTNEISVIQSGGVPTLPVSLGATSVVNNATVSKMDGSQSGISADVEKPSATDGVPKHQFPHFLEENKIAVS
Setting: 8-mer, flanks averaged, mean of replicates
| Sequence | E-score |
| --- | --- |
| AGTCTCCC | -0.213 |
| GGAATACA | 0.112 |
| ATAGAGTA | 0.263 |
| AATTCCGG | -0.0946 |
| TCGCAGCA | -0.0192 |
| GCCTAAGC | -0.201 |
| AACGGAGC | -0.248 |
| GCATTTGA | 0.0557 |
| TCTGTCAA | 0.13 |
| ATGTAATG | 0.242 |
| CCTCGGAA | -0.103 |
| ATACGACG | 0.144 |
| AGCCCCCC | -0.364 |
| AGTAGGTA | 0.11 |
| GACAATTA | 0.291 |
| AATACACG | 0.137 |
| ATAGCCAC | -0.0188 |
| CCTATTGC | 0.00886 |
| AGCCAATA | 0.15 |
| AACGCGAA | -0.000925 |
| ATGTATTC | 0.174 |
| GCCACCAA | -0.112 |
| GGTTCTAA | 0.0843 |
| AGTTGGTA | 0.203 |
| CCCTGCGG | -0.395 |

Study 5 — target: CCNA2, cyclin fold, Cln2 fusion (human); technique: yeast growth competition, sequencing; matrix: yeast; setting: strong parent motif; baseline: not given; direction: higher = stronger binding
Parent: WEE1 docking peptide (human); HKTFRKLRLFDTP
| Variant | normalised enrichment score |
| --- | --- |
| HKTRRKLRLFDTP [F4R] | 2.57 |
| HKTFRKLRFFDTP [L9F] | 2.33 |
| HKTFRKPRLFDTP [L7P] | 1.26 |
| HKTIRKLRLFDTP [F4I] | 1.85 |
| MKTFRKLRLFDTP [H1M] | 0.63 |
| HKTFRKLILFDTP [R8I] | 1.8 |
| SKTFRKLRLFDTP [H1S] | 2.39 |
| HKTFRKLRLFDNP [T12N] | 2.41 |
| HKTFRYLRLFDTP [K6Y] | 2.44 |
| HDTFRKLRLFDTP [K2D] | 0.712 |
| HKHFRKLRLFDTP [T3H] | 2.66 |
| HKTFRKLRTFDTP [L9T] | 0.113 |
| HKTFRKLRLRDTP [F10R] | 1.31 |
| HKGFRKLRLFDTP [T3G] | 2.73 |
| HKTFRKLRLPDTP [F10P] | 1.51 |
| HKTFRKLRKFDTP [L9K] | 1.5 |
| HKTFRKGRLFDTP [L7G] | 2.2 |

Further values, each from its own experiment
| Molecule | target | test | test system | setting | how to read | endpoint | result |
| --- | --- | --- | --- | --- | --- | --- | --- |
| PhoQ, residues 284 288 289 292 302 303 SMMNNA | PhoP, residues 12 14 15 18 19 SGWQI (Escherichia coli, UniProt P23836) | Sort-seq, refers to: YFP reporter | E. coli | PhoQ-PhoP variant library, with: 10 µM Mg2+ | baseline: high Mg2+ state, higher = stronger signaling | fold induction | 2.49 |

Excerpt of the above (study 4):
| Sequence | E-score |
| --- | --- |
| AGCCCCCC | -0.364 |
| GCCACCAA | -0.112 |
| TCTGTCAA | 0.13 |
| ATGTAATG | 0.242 |
| TCGCAGCA | -0.0192 |
| AATTCCGG | -0.0946 |
| CCTATTGC | 0.00886 |
| ATGTATTC | 0.174 |
| GGAATACA | 0.112 |
| GCCTAAGC | -0.201 |
| AACGGAGC | -0.248 |
| AGTCTCCC | -0.213 |
